{"data": "Measured values gathered from unrelated publications", "note": "Numbered parts are unrelated; each lists some results of a single study."}
{"data": "Series 1", "target": "Protein C-ets-1 (ETS1, Homo sapiens, UniProt P14921, residues 1-441, full length assumed)", "technique": "protein-binding microarray", "molecule type": "double-stranded DNA, one strand shown", "sample": "in vitro", "concentration": "not given", "setting": "k-mer, scored over probes, only values ≥0.25", "direction": "higher = stronger binding", "chain of UniProt P14921 (whole entry, looked up)": "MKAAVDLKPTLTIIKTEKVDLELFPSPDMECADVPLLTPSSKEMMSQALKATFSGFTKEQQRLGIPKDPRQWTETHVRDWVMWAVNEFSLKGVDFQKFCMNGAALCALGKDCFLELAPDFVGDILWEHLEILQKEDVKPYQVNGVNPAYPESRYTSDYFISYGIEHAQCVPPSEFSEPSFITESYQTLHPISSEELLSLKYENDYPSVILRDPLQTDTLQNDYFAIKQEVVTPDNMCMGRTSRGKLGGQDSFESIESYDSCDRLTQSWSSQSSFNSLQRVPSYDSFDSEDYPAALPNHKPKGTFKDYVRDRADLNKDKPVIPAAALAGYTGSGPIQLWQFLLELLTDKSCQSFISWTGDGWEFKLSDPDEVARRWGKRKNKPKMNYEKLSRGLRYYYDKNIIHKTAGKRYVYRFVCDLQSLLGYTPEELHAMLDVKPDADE"}
{"Oligonucleotide": "TGGCGGAA", "E-score": 0.448}
{"Oligonucleotide": "ACGTCCGA", "E-score": 0.252}
{"Oligonucleotide": "GAGAGGAA", "E-score": 0.326}
{"Oligonucleotide": "AAGGAGGA", "E-score": 0.322}
{"Oligonucleotide": "CAGGAACA", "E-score": 0.306}
{"Oligonucleotide": "CTTCCACC", "E-score": 0.278}
{"Oligonucleotide": "CCCCGGTA", "E-score": 0.256}
{"Oligonucleotide": "ACTACGGA", "E-score": 0.327}
{"data": "Series 2", "target": "Sal-like protein 4, full length isoform B (SALL4, Homo sapiens, UniProt Q9UJQ4-2, residues 1-616)", "technique": "universal PBM", "molecule type": "double-stranded DNA, one strand shown", "sample": "in vitro", "concentration": "not given", "setting": "8-mer, flanks averaged, mean of replicates", "direction": "higher = stronger binding"}
{"Oligonucleotide": "GGTCAAGA", "E-score": -0.101}
{"Oligonucleotide": "AACCTTGT", "E-score": -0.0958}
{"Oligonucleotide": "AATAATGA", "E-score": 0.347}
{"Oligonucleotide": "CTGAGCGC", "E-score": -0.293}
{"Oligonucleotide": "GTCTTTAA", "E-score": 0.212}
{"Oligonucleotide": "AGAAGTGG", "E-score": 0.0196}
{"Oligonucleotide": "AATAACAG", "E-score": 0.321}
{"Oligonucleotide": "ACAGCCAT", "E-score": 0.0348}
{"data": "Series 3", "cell line": "HEK-293T/ACE2", "concentration": "concentration not given", "time": "16 (unit not given)", "reference": "vehicle"}
{"Compound": "Cc1cccc(C)c1OCC(=O)N[C@@H](Cc1ccccc1)[C@@H](O)C[C@H](Cc1ccccc1)NC(=O)[C@H](C(C)C)N1CCCNC1=O", "viability [%]": 108}
{"Compound": "CCCN(CCC)S(=O)(=O)c1ccc(C(=O)O)cc1", "viability [%]": 98}
{"Compound": "Cc1ccc(-c2cc(C(F)(F)F)nn2-c2ccc(S(N)(=O)=O)cc2)cc1", "viability [%]": 101}
{"Compound": "CCCCOc1ccc(OCCCN2CCOCC2)cc1", "viability [%]": 101}
{"data": "Series 4", "target": "Replicase polyprotein 1ab, main protease (rep, Severe acute respiratory syndrome coronavirus 2, UniProt P0DTD1)", "observed": "enzyme activity", "mode": "inhibitor", "concentration": "20 µM", "setting": "hit confirmation"}
{"Structure (SMILES)": "O=C(O)Cn1c2c(c3cc(F)ccc31)CN(C(=O)c1cccc3ccccc13)CC2", "inhibition [%]": 6.8}
{"Structure (SMILES)": "CCO[C@@H](Cc1ccc(OCCn2c(C)ccc2-c2ccc(SC)cc2)cc1)C(=O)O", "inhibition [%]": -8.9}
{"Structure (SMILES)": "c1cc2c(cc1C1CCCCC1)c1c3n2CCNC3CCC1 (stereo not drawn)", "inhibition [%]": 10.5}
{"data": "Series 5", "target": "Replicase polyprotein 1ab, nsp13 helicase (rep, Severe acute respiratory syndrome coronavirus 2, UniProt P0DTD1)", "mode": "inhibitor", "concentration": "20 µM"}
{"Structure (SMILES)": "NC(=O)OCC(O)COc1ccc(Cl)cc1 (stereo not drawn)", "inhibition [%]": 5}
{"Structure (SMILES)": "CC1=N[C@H](C(=O)O)CCN1", "inhibition [%]": -1.25}
{"Structure (SMILES)": "CC(C)[C@@H](CS(=O)(=O)C(C)C)N1C(=O)[C@@](C)(CC(=O)O)C[C@H](c2cccc(Cl)c2)[C@H]1c1ccc(Cl)cc1", "inhibition [%]": 8.1}
{"Structure (SMILES)": "OC[C@@H](O)[C@@H](O)CO", "inhibition [%]": -10.3}
{"Structure (SMILES)": "COc1ccc(-c2cc(=S)ss2)cc1", "inhibition [%]": 7.57}
{"Structure (SMILES)": "O=C(O)CCCCCCCC(=O)O", "inhibition [%]": -1.54}
{"Structure (SMILES)": "COc1ccc(Cl)cc1C(=O)NCCc1ccc(C(=O)O)cc1", "inhibition [%]": 2.76}
{"Structure (SMILES)": "Cc1nnc(C(C)C)n1[C@@H]1C[C@H]2CC[C@@H](C1)N2CC[C@H](NC(=O)C1CCC(F)(F)CC1)c1ccccc1", "inhibition [%]": 4.66}
{"Structure (SMILES)": "Cc1cc(SCc2sc(-c3ccc(C(F)(F)F)c(F)c3)nc2C)ccc1OCC(=O)O", "inhibition [%]": 13.1}
{"Structure (SMILES)": "N#CC1(c2ccc(NC(=O)c3cccnc3NCc3ccncc3)cc2)CCCC1", "inhibition [%]": 36.7}
{"Structure (SMILES)": "N[C@H](C(=O)O)c1ccc(C(=O)O)c(C(=O)O)c1", "inhibition [%]": 6.99}
{"Structure (SMILES)": "CCN(CC)CCCCC(NC(=O)c1ccc([N+](=O)[O-])cc1)c1ccccc1 (stereo not drawn)", "inhibition [%]": 3.39}
{"Structure (SMILES)": "C1CCC(C(CC2CCCCN2)C2CCCCC2)CC1 (stereo not drawn)", "inhibition [%]": 4.25}
{"Structure (SMILES)": "CCN(CC)CCNC(=O)c1ccc(NC(C)=O)cc1", "inhibition [%]": 3.52}
{"Structure (SMILES)": "CCOc1ccn(-c2ccc(F)cc2)c(=O)c1C(=O)Nc1ccc(Oc2ccnc(N)c2Cl)c(F)c1", "inhibition [%]": 4.22}
{"Structure (SMILES)": "CCCc1c(OCCCCc2nnn[nH]2)ccc(C(C)=O)c1O", "inhibition [%]": -0.22}
{"Structure (SMILES)": "C[C@H](N)[C@H](O)c1cccc(O)c1", "inhibition [%]": -7.4}
{"Structure (SMILES)": "Cc1cc(/C=C/C#N)cc(C)c1Nc1ccnc(Nc2ccc(C#N)cc2)n1", "inhibition [%]": 5.42}
{"Structure (SMILES)": "CCCCCCCC(=O)OCC(O)CO (stereo not drawn)", "inhibition [%]": -3.41}
{"Structure (SMILES)": "Cc1cccc(-c2[nH]ncc2-c2ccc3ncccc3n2)n1", "inhibition [%]": 1.32}
{"Structure (SMILES)": "COc1cc2/c(=N/c3ccc(Br)cc3F)nc[nH]c2cc1OCC1CCN(C)CC1", "inhibition [%]": -1.49}
{"Structure (SMILES)": "COc1ccc2c(c1)C(=O)N(CCc1ccc(S(=O)(=O)NC(=O)NC3CCCCC3)cc1)C(=O)C2(C)C", "inhibition [%]": 4.18}
{"note": "Repeated from above (series 5):"}
{"Structure (SMILES)": "OC[C@@H](O)[C@@H](O)CO", "inhibition [%]": -10.3}
{"Structure (SMILES)": "C[C@H](N)[C@H](O)c1cccc(O)c1", "inhibition [%]": -7.4}
{"Structure (SMILES)": "N[C@H](C(=O)O)c1ccc(C(=O)O)c(C(=O)O)c1", "inhibition [%]": 6.99}
{"Structure (SMILES)": "Cc1cc(/C=C/C#N)cc(C)c1Nc1ccnc(Nc2ccc(C#N)cc2)n1", "inhibition [%]": 5.42}
{"Structure (SMILES)": "NC(=O)OCC(O)COc1ccc(Cl)cc1 (stereo not drawn)", "inhibition [%]": 5}
{"Structure (SMILES)": "C1CCC(C(CC2CCCCN2)C2CCCCC2)CC1 (stereo not drawn)", "inhibition [%]": 4.25}
